Published values collected from several papers.
Every numbered part comes from another study and shows a few of its results, in no order.
Sequence of UniProt Q8TD08 (whole entry, looked up): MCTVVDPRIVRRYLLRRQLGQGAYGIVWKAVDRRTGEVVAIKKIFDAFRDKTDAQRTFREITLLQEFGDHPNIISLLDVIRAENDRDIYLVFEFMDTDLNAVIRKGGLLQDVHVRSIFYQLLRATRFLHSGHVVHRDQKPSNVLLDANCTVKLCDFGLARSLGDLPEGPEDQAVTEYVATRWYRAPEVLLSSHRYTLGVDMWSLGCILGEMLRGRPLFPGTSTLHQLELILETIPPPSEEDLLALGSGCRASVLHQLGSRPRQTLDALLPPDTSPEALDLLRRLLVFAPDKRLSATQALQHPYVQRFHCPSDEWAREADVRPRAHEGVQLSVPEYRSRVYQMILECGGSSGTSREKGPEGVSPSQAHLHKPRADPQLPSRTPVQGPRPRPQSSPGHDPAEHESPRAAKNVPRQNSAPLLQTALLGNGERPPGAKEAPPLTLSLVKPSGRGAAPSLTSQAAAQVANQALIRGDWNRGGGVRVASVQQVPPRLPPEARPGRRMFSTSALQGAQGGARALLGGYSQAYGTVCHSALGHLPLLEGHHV
Sequence of UniProt Q9BWU1 (whole entry, looked up): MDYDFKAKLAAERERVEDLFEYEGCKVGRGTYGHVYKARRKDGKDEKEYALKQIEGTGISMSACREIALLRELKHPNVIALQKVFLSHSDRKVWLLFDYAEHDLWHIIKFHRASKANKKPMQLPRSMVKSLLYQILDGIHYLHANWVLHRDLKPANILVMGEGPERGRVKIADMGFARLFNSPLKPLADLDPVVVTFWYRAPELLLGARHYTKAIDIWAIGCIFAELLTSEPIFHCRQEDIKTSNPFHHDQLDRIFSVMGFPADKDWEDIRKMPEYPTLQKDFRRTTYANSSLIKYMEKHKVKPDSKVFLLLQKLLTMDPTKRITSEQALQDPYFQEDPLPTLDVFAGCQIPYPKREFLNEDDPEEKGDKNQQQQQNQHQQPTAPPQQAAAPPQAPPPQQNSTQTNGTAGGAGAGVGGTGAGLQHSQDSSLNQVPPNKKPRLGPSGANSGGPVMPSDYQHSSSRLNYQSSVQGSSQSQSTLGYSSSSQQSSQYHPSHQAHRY
Sequence of UniProt Q14164 (whole entry, looked up): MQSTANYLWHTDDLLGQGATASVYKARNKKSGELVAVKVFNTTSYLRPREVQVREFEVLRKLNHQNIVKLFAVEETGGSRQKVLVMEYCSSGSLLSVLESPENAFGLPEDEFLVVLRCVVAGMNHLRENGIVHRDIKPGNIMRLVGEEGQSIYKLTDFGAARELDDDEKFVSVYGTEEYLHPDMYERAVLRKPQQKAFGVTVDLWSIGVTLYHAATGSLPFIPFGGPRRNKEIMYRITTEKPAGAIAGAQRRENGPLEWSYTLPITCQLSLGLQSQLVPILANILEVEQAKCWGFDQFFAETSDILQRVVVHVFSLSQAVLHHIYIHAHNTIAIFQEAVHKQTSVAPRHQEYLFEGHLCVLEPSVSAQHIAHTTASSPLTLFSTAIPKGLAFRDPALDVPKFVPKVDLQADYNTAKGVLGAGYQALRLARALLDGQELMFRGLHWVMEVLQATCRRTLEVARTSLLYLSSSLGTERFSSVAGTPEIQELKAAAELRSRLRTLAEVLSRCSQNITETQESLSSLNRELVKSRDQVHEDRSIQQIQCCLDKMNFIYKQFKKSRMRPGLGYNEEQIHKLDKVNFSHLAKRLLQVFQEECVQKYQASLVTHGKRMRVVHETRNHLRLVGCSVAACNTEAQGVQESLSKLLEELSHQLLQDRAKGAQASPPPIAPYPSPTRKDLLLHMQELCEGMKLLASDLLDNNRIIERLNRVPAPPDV
Sequence of UniProt Q9UPZ9 (whole entry, looked up): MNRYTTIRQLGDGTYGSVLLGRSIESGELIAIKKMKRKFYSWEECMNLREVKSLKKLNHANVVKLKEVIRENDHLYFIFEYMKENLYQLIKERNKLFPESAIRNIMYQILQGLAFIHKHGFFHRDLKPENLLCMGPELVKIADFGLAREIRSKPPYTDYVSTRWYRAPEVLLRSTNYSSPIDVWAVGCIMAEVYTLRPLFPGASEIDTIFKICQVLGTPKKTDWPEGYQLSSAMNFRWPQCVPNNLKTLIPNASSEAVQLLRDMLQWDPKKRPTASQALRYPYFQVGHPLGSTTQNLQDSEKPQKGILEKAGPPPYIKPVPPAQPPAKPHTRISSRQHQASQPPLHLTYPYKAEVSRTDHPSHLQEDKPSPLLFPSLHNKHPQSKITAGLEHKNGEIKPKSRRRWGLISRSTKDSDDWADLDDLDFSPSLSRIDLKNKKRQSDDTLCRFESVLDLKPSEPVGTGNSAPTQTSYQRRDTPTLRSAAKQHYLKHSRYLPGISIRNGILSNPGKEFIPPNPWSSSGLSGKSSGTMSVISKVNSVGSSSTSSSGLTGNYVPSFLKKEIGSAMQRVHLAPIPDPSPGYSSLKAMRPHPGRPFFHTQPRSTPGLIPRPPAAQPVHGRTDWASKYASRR
Sequence of UniProt P42685 (whole entry, looked up): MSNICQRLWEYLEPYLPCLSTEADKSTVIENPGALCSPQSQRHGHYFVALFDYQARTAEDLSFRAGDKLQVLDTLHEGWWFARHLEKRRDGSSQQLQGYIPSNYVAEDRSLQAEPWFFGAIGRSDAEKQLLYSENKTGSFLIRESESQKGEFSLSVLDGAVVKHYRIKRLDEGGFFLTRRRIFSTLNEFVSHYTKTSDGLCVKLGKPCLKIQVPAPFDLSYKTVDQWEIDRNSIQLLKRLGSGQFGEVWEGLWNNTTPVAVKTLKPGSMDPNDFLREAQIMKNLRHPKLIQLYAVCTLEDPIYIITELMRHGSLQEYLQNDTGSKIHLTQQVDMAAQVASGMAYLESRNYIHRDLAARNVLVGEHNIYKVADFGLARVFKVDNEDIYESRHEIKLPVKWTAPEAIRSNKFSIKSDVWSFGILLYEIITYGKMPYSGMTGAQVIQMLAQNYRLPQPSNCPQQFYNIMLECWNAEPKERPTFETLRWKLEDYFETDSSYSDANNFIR
Sequence of UniProt Q09013 (whole entry, looked up): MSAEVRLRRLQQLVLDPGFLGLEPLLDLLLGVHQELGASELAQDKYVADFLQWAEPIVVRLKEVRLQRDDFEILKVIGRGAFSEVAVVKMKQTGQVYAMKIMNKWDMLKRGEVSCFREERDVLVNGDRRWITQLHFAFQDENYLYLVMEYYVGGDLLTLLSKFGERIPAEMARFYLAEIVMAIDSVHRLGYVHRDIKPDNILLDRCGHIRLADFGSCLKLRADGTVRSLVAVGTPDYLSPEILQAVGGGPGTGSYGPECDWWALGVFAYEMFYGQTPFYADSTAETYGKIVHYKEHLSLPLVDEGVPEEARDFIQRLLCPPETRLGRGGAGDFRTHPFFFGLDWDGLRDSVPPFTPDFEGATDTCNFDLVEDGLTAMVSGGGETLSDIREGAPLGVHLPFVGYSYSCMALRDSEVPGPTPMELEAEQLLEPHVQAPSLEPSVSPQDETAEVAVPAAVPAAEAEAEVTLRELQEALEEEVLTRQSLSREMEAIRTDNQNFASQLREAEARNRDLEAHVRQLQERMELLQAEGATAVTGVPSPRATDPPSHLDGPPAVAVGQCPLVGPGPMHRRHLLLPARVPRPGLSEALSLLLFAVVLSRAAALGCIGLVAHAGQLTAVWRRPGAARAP
Sequence of UniProt P07949 (whole entry, unmodified, looked up): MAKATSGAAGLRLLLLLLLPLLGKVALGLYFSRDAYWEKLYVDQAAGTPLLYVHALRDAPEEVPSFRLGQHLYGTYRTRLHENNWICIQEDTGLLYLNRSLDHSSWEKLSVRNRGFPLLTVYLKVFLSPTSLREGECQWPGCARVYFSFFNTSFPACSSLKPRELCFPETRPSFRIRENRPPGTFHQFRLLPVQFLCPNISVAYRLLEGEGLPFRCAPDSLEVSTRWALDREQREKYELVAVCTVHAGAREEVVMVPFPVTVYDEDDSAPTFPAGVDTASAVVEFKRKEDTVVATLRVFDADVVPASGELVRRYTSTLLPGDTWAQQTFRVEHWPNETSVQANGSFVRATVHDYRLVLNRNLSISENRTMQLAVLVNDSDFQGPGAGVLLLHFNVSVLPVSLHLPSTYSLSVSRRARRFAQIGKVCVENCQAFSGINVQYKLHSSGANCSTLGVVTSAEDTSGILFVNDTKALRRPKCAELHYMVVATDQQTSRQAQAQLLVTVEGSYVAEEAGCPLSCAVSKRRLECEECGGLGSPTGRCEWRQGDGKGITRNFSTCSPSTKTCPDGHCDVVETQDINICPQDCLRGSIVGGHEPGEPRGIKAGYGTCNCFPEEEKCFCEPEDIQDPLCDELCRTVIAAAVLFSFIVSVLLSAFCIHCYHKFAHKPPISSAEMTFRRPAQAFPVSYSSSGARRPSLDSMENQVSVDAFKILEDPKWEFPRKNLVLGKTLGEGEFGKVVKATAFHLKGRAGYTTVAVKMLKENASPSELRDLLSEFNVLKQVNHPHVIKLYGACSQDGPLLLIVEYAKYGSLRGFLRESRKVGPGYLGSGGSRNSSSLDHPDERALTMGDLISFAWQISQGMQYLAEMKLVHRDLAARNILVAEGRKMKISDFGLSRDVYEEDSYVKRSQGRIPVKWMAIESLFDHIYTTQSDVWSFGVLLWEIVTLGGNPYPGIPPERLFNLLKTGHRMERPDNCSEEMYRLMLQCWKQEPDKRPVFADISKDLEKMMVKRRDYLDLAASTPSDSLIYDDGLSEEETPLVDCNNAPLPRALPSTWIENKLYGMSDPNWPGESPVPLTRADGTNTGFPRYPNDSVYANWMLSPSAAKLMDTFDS

Series 1
Target: Dual specificity tyrosine-phosphorylation-regulated kinase 4 (DYRK4, Homo sapiens, UniProt Q9NR20)
Observed: enzyme activity
Action: inhibitor
Concentration: 0.5 µM
Reference: control
Endpoint: remaining activity
Construct (Q9NR20 1-520): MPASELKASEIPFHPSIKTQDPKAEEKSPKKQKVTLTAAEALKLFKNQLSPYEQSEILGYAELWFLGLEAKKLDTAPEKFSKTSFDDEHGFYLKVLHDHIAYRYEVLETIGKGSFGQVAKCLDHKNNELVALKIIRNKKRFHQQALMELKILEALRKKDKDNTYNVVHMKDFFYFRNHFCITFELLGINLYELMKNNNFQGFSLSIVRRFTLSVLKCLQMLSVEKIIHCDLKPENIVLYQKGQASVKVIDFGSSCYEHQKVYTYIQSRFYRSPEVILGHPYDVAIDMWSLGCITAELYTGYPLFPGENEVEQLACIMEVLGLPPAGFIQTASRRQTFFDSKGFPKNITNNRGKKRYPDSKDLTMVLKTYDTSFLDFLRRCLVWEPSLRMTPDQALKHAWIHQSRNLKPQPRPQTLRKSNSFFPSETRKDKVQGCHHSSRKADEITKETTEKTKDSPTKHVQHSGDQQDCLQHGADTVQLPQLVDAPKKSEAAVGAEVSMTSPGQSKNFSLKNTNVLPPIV
O=c1cc(-c2cccc3c2Sc2ccccc2S3)oc(N2CCOCC2)c1: 105%
Cc1nc2cc3nc(-c4cccs4)cnc3cc2n1C: 104%
c1ccc(-c2[nH]ncc2-c2ccnc3ccccc23)nc1: 104%
Nc1cccc(-c2cc3c(Oc4cccc(O)c4)ncnc3[nH]2)c1: 101%
COc1cc2ncnc(Nc3ccc(O)c(Br)c3)c2cc1OC: 101%
Cc1cc2ncc(-c3ccccc3)nc2cc1C: 90.3%
N#Cc1c(NC(=O)c2cccc3ccccc23)sc2c1CCCC2: 98.1%
COc1cc2c(cc1OC)-c1[nH]nc(Nc3cccc(F)c3)c1C2: 92.6%
CCN(CC)CCNC(=O)c1c(C)[nH]c(/C=C2\C(=O)Nc3ccc(F)cc32)c1C: 104%
CN(C)C[C@H]1CCn2c(c(C3=C(c4cn(C)c5ccccc45)C(=O)NC3=O)c3ccccc32)C1: 98.9%
Cn1nc2c3c(cccc31)C(=O)c1ccccc1-2: 91.2%
CCOc1nc(NC(=O)Cc2cc(OC)ccc2OC)cc(N)c1C#N: 92.6%
Ic1cccc(CSc2nnc(-c3ccncc3)o2)c1: 98.5%
O=C1C(Cl)=C(N2C(=O)CCC2=O)C(=O)c2ccccc21: 94.1%
O=C(Nc1cccc(Nc2nccc(Nc3cccc(C(F)(F)F)c3)n2)c1)C1CC1: 107%
COc1cc2ncnc(Nc3cccc(Cl)c3)c2cc1OC: 91.7%
CCN(CC)CCNC(=O)c1c(C)[nH]c(/C=C2\C(=O)Nc3ccc(Cl)cc32)c1C: 97.9%
O=C1c2ccccc2-c2n[nH]c3cccc1c23: 105%
Cc1cn(-c2cc(NC(=O)c3ccc(C)c(Nc4nccc(-c5cccnc5)n4)c3)cc(C(F)(F)F)c2)cn1: 101%
CN([C@@H](Cc1ccc(OS(=O)(=O)c2cccc3cnccc23)cc1)C(=O)N1CCN(c2ccccc2)CC1)S(=O)(=O)c1cccc2cnccc12: 97.8%
CCN(CC)C(=O)c1ccc(Nc2nc(OCC3CCCCC3)c3[nH]cnc3n2)cc1: 93.6%
C[C@@H]1CCN(C(=O)CC#N)C[C@@H]1N(C)c1ncnc2[nH]ccc12: 97.2%
c1ccc(-c2cnc(Nc3ccc(OCCN4CCCC4)cc3)s2)cc1: 99.4%
N#C/C(=C\c1ccc(O)c(O)c1)C(=O)NCc1ccccc1: 106%

Series 2
SMILES: O=C(O)[C@@H]1[C@@H](Cn2nnc3ccccc3c2=O)CC[C@H]1C(=O)c1ccc(OCCC2CCOCC2)cc1
Concentration: 1 µM
Endpoint: remaining binding
FLT3 (Homo sapiens, UniProt P36888, D835Y); cell-free assay, competition with immobilised ligand: 100%
CDK19 (Homo sapiens, UniProt Q9BWU1); competition binding: 100%
SBK1 (Homo sapiens, UniProt Q52WX2); cell-free assay, competition with immobilised ligand: 100%
FRK (Homo sapiens, UniProt P42685); cell-free assay, competition with immobilised ligand: 89%
PAK4 (Homo sapiens, UniProt O96013); cell-free assay, competition with immobilised ligand: 89%
SYK (Homo sapiens, UniProt P43405); cell-free assay, competition with immobilised ligand: 100%
ALK (Homo sapiens, UniProt Q9UM73, C1156Y); cell-free assay, competition with immobilised ligand: 100%
MAPKAPK5 (Homo sapiens, UniProt Q8IW41); cell-free assay, competition with immobilised ligand: 76%
PRPF4B (Homo sapiens, UniProt Q13523); cell-free assay, competition with immobilised ligand: 80%
IKBKE (Homo sapiens, UniProt Q14164); cell-free assay, competition with immobilised ligand: 100%
MAP2K7 (Homo sapiens, UniProt O14733); cell-free assay, competition with immobilised ligand: 89%
CILK1 (Homo sapiens, UniProt Q9UPZ9); binding, competition with immobilised ligand: 97%
DMPK (Homo sapiens, UniProt Q09013); cell-free assay, competition with immobilised ligand: 100%
RET (Homo sapiens, UniProt P07949, M918T); cell-free assay, competition with immobilised ligand: 100%
EPHA6 (Homo sapiens, UniProt Q9UF33); cell-free assay, competition with immobilised ligand: 97%
MAPK15 (Homo sapiens, UniProt Q8TD08); cell-free assay, competition with immobilised ligand: 100%
MTOR (Homo sapiens, UniProt P42345); cell-free assay, competition with immobilised ligand: 96%

Series 3
Cell line: HaCaT
Concentration: 100 µM
Time: 18 h
Endpoint: viability
O=C(Nc1c(Cl)cncc1Cl)c1ccc(OC(F)F)c(OCC2CC2)c1: 94%
Cc1ncc([N+](=O)[O-])n1C: 90.2%
CC(C)(C(=O)c1cccnc1)c1cccnc1: 110%
CC(=O)Oc1ccc(C(c2ccc(OC(C)=O)cc2)c2ccccn2)cc1: 17.4%
CCC(=O)c1c(O)cc(O)cc1O: 90.2%
N[C@H](C(=O)O)[C@H](O)c1ccc(O)c(O)c1: 126%
C[C@@H](Oc1cc(-c2cnn(C3CCNCC3)c2)cnc1N)c1c(Cl)ccc(F)c1Cl: 18.1%
Oc1c(I)cc(I)c2cccnc12: 111%

Series 4
Host: human
Sample: microsomes or S9
Concentration: 2 µM
Time: 0.5 h
Endpoint: remaining compound
CC(NS(=O)(=O)c1ccc(S(=O)(=O)NC2CCCCC2C)cc1)c1ccc(F)cc1 (stereo not shown): 0.443%
O=c1cc(O)c2sc3nc(-c4cccs4)cc(-c4ccc(F)cc4)c3c2[nH]1: 93%
COc1cc(=O)n2c(c1C(=O)NCc1cccc(C(F)(F)F)c1)CCCC2: 44%
Nc1nc(N2CCOCC2)[nH]c(=O)c1Br: 76.3%
CCOC(=O)N1CCN(C(=O)c2cn(C)c(=O)cc2OC)CC1: 98.5%
COc1cc(-c2cc(NC(=O)C3CCCN(c4ncnc5c4nc4n5CCCCC4)C3)on2)cc(OC)c1OC (stereo not shown): 5.34%
CN(c1cccnn1)S(=O)(=O)c1c(Cl)ccc2scnc12: > 100%
CC(C)CCn1cc(C(=O)Nc2cccc3[nH]ccc23)c2ccccc2c1=O: 39.2%
CC(Cc1nc2c(s1)Cc1ccccc1-2)n1cc(Cl)cn1 (stereo not shown): 0.444%
c1ccc(C(CNc2ncccn2)c2ccccc2)cc1: 2.03%
Cc1nnc2c(Nc3cccc(CNC(=O)OC(C)(C)C)c3)nc3cc(C(=O)Nc4ccccc4)ccc3n12: > 100%
O=c1c2c3nc4ccccc4nc3n(Cc3ccc4c(c3)OCO4)c2ncn1Cc1ccco1: 42.4%

For quick reference, copied from above (series 4):
c1ccc(C(CNc2ncccn2)c2ccccc2)cc1: 2.03%
Nc1nc(N2CCOCC2)[nH]c(=O)c1Br: 76.3%
COc1cc(=O)n2c(c1C(=O)NCc1cccc(C(F)(F)F)c1)CCCC2: 44%
O=c1cc(O)c2sc3nc(-c4cccs4)cc(-c4ccc(F)cc4)c3c2[nH]1: 93%
CC(Cc1nc2c(s1)Cc1ccccc1-2)n1cc(Cl)cn1 (stereo not shown): 0.444%
CC(C)CCn1cc(C(=O)Nc2cccc3[nH]ccc23)c2ccccc2c1=O: 39.2%
CCOC(=O)N1CCN(C(=O)c2cn(C)c(=O)cc2OC)CC1: 98.5%
CN(c1cccnn1)S(=O)(=O)c1c(Cl)ccc2scnc12: > 100%
O=c1c2c3nc4ccccc4nc3n(Cc3ccc4c(c3)OCO4)c2ncn1Cc1ccco1: 42.4%
